Results from different studies.
A part holds a random share of what one study measured. Several values in a cell are separate wells, animals, samples, runs or records.

Set 1
Structure (SMILES): CCN1/C(=C/C=C2\CCCC(/C=C/C3=[N+](CC)c4ccccc4C3(C)C)=C2NCCCCCCCCN2CCC(Nc3nc4ccccc4n3Cc3ccc(F)cc3)CC2)C(C)(C)c2ccccc21
Cell line: U-87 MG
Tested at: concentration not given
Reference: DMSO
test | log2 fold change
item: BMP2 mRNA | 2.43
item: RND1 mRNA | 2.7
item: RECQL4 mRNA | -1.67
item: FSTL1 mRNA | -1.2
item: SLC29A2 mRNA | -1.13
item: PMVK mRNA | -0.816
item: BANP mRNA | 0.907
item: CENPF mRNA | -2.16
item: EPHB2 mRNA | -1.25
item: RNF185 mRNA | 1.51
item: LAYN mRNA | -1.24
item: PINX1 mRNA | 0.946
item: CAMK1D mRNA | 1.12
item: YWHAH mRNA | -1.03

Set 2
Cell line: HCC1569
Observed: CDK1 Thr14 phosphorylation
Method: in-cell western
Tested at: 12.35 nM
Reading: lower = stronger inhibition
Structure (SMILES) | phospho-CDK1 (Thr14) level
Cc1ccc(O)c(C)c1-c1cnc2[nH]c(-c3cnc(N4CCC(CN5CCN(c6cc7c(cc6F)n(C6CCC(=O)NC6=O)c(=O)n7C)CC5)CC4)nc3)cc2c1C#N (stereo not shown) | 2.2 a.u. and -5.3 a.u.
Cc1ccc(O)c(C)c1-c1cnc2[nH]c(-c3cnc(N4CCC5(CC4)CC(N4CCN(c6ccc(NC7CCC(=O)NC7=O)cc6F)CC4)CO5)nc3)cc2c1C#N (stereo not shown) | 51.9 a.u. and 55.1 a.u.
Cc1ccc(O)c(C)c1-c1cnc2[nH]c(-c3cnc(N4CCC(CN5CCC(c6ccc(NC7CCC(=O)NC7=O)cc6F)CC5)CC4)nc3)cc2c1C#N (stereo not shown) | 35.7 a.u. and 7.49 a.u.
Cc1ccc(O)c(C)c1-c1cnc2[nH]c(-c3cnc(N4CCC(CN5CCN(c6ccc7c(c6)C(=O)N(C6CCC(=O)NC6=O)C7=O)CC5)CC4)nc3)cc2c1C#N (stereo not shown) | 41.9 a.u. and 43.8 a.u.
Cc1ccc(O)c(C)c1-c1cnc2[nH]c(-c3cnc(N4CCC(CN5CCN(c6ccc(NC7CCC(=O)NC7=O)cc6F)CC5)CC4)nc3)cc2c1C#N (stereo not shown) | 34.1 a.u. and 32.9 a.u.

Set 3
Structure (SMILES): CC(C)(C)c1ccc(Oc2ccc3c(c2)OC(O)(C(=O)O)C(=O)N3Cc2ccccc2)cc1 (stereo not shown)
Organism: Arabidopsis thaliana
Strain: Col-0
setting | hypocotyl length
50 µg/mL, seed germination, repetition mean | 1.64 cm
12.5 µg/mL, seed germination, repetition mean | 1.86 cm
6.25 µg/mL, seed germination, repetition mean | 2.04 cm
25 µg/mL, seed germination, single repetition | 1.71 cm and 1.75 cm and 1.78 cm and 1.68 cm and 1.74 cm
6.25 µg/mL, seed germination, single repetition | 2.02 cm and 2.12 cm and 1.98 cm and 2.04 cm
100 µg/mL, seed germination, repetition mean | 1.24 cm
100 µg/mL, seed germination, single repetition | 1.25 cm and 1.27 cm and 1.22 cm and 1.23 cm
3.125 µg/mL, seed germination, single repetition | 2.35 cm and 2.31 cm and 2.28 cm and 2.29 cm
3.125 µg/mL, seed germination, repetition mean | 2.3 cm

Set 4
Cell line: MDA-MB-231
Observed: cell viability
Method: CellCounting-Lite
Tested at: 0.3048 nM
Temperature: 37 °C
Reading: higher = more viable cells
SMILES | luminescence signal
CCn1cnc2c(NCc3nc4cc(F)c(F)cc4[nH]3)nc(N3CCn4ncnc4C3)nc21 | 512000 a.u. and 453000 a.u. and 477000 a.u.
CCn1cnc2c(NCc3nc4cc(Cl)c(Cl)cc4[nH]3)nc(N3CCC(NC(C)=O)CC3)nc21 | 434000 a.u. and 506000 a.u. and 451000 a.u.
CCn1cnc2c(NCc3nc4cc(Cl)c(Cl)cc4[nH]3)nc(N3CCn4ncnc4C3)nc21 | 455000 a.u. and 439000 a.u. and 529000 a.u.
CCn1cnc2c(NCc3nc4cc(Cl)c(Cl)cc4[nH]3)nc(N3CCN(C(=O)[C@H](C)NC(C)=O)CC3)nc21 | 440000 a.u. and 405000 a.u. and 438000 a.u.
CCn1cnc2c(NCc3nc4cc(Cl)c(Cl)cc4[nH]3)nc(N3CCN(C(=O)c4ccccn4)CC3)nc21 | 460000 a.u. and 443000 a.u. and 403000 a.u.
CCn1cnc2c(NCc3nc4cc(Cl)c(Cl)cc4[nH]3)nc(N3CCN(C(=O)c4cccnc4)CC3)nc21 | 431000 a.u. and 398000 a.u. and 458000 a.u.
CCn1cnc2c(NCc3nc4cc(Cl)c(Cl)cc4[nH]3)nc(N3CCN(Cc4ccncc4)CC3)nc21 | 457000 a.u. and 431000 a.u. and 408000 a.u.
CC(=O)N1CCN(c2nc(NCc3nc4cc(Cl)c(Cl)cc4[nH]3)c3ncn(C(C)C)c3n2)CC1 | 489000 a.u. and 497000 a.u. and 490000 a.u.
Cn1cc(-n2cnc3c(NCc4nc5cc(Cl)c(Cl)cc5[nH]4)nc(N4CCNCC4)nc32)cn1 | 447000 a.u. and 486000 a.u. and 479000 a.u.
CCn1cnc2c(NCc3nc4cc(Cl)c(Cl)cc4[nH]3)nc(N3CCN(S(C)(=O)=O)CC3)nc21 | 446000 a.u. and 447000 a.u. and 459000 a.u.
CCn1cnc2c(NCc3nc4cc(Cl)c(Cl)cc4[nH]3)nc(N3CCN(C(=O)c4ccncc4)CC3)nc21 | 480000 a.u. and 443000 a.u. and 507000 a.u.
CCn1cnc2c(NCc3nc4cc(Cl)c(Cl)cc4[nH]3)nc(N3CCN(C(=O)CNC(C)=O)CC3)nc21 | 491000 a.u. and 485000 a.u. and 461000 a.u.
CCn1cnc2c(NCc3nc4ccc(F)c(F)c4[nH]3)nc(N3CCn4ncnc4C3)nc21 | 524000 a.u. and 456000 a.u. and 509000 a.u.
CC(=O)N1CCN(c2nc(NCc3nc4cc(Cl)c(Cl)cc4[nH]3)c3ncn(C)c3n2)CC1 | 507000 a.u. and 412000 a.u. and 421000 a.u.
CC(=O)N1CCN(c2nc(NCc3nc4cc(Cl)c(Cl)cc4[nH]3)c3ncn(-c4cnn(C)c4)c3n2)CC1 | 526000 a.u. and 490000 a.u. and 463000 a.u.
CCn1cnc2c(NCc3nc4cc(Cl)c(Cl)cc4[nH]3)nc(N3CCN(C(=O)c4ccccc4)CC3)nc21 | 445000 a.u. and 473000 a.u. and 440000 a.u.
CCn1cnc2c(NCc3nc4cc(Cl)c(Cl)cc4[nH]3)nc(N3CCN(c4ccccn4)CC3)nc21 | 567000 a.u. and 561000 a.u. and 611000 a.u.
CCCCOc1nc(NCc2nc3cc(Cl)c(Cl)cc3[nH]2)c2ncn(CC)c2n1 | 485000 a.u. and 596000 a.u. and 456000 a.u.

Excerpt of the above (set 1):
test | log2 fold change
item: LAYN mRNA | -1.24
item: YWHAH mRNA | -1.03
item: CAMK1D mRNA | 1.12
item: RND1 mRNA | 2.7
item: EPHB2 mRNA | -1.25
item: SLC29A2 mRNA | -1.13
